{"data": "Results gathered from unrelated publications", "note": "Each numbered part is a random draw from the data of one study; scales do not carry over between parts. Substitutions count along the parent as printed.", "sequence of UniProt P53355 (whole entry, looked up)": "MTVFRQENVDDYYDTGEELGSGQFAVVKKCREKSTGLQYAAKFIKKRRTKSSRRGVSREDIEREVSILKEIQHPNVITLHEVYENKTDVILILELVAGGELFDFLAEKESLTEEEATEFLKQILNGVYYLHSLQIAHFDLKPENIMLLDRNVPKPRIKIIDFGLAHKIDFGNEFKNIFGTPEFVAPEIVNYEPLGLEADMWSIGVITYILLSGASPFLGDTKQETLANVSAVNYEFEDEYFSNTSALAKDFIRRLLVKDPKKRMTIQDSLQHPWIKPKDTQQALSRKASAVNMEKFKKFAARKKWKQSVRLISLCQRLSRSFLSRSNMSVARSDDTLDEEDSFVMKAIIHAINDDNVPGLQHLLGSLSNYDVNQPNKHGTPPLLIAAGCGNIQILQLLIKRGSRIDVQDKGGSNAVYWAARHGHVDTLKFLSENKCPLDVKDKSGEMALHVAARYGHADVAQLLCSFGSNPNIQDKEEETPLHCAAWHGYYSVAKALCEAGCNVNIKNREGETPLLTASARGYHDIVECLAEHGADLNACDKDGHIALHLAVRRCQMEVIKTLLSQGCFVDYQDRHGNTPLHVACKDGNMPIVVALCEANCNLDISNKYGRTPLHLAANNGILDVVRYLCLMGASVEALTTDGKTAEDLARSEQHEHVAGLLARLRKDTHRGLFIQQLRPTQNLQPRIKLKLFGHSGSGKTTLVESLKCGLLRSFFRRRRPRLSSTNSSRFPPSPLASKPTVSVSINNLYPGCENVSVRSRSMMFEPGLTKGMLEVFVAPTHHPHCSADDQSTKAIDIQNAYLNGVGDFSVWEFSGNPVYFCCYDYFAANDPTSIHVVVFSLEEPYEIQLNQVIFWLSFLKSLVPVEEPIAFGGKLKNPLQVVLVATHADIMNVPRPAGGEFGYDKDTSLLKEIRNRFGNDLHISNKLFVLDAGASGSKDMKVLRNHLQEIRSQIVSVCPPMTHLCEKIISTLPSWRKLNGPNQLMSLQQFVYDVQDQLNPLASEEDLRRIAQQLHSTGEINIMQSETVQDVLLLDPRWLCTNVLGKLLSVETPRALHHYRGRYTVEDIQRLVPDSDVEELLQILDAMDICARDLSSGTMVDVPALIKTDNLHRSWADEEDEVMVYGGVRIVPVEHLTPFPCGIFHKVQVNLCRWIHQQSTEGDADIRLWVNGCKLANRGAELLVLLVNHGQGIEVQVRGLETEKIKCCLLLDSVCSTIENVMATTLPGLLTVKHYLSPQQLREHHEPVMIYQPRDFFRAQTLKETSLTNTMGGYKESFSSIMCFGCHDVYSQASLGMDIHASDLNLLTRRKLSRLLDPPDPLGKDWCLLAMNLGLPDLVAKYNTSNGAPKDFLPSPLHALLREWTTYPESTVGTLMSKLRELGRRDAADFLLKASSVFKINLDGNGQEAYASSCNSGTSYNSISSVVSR", "sequence of UniProt Q9BYT3 (whole entry, looked up)": "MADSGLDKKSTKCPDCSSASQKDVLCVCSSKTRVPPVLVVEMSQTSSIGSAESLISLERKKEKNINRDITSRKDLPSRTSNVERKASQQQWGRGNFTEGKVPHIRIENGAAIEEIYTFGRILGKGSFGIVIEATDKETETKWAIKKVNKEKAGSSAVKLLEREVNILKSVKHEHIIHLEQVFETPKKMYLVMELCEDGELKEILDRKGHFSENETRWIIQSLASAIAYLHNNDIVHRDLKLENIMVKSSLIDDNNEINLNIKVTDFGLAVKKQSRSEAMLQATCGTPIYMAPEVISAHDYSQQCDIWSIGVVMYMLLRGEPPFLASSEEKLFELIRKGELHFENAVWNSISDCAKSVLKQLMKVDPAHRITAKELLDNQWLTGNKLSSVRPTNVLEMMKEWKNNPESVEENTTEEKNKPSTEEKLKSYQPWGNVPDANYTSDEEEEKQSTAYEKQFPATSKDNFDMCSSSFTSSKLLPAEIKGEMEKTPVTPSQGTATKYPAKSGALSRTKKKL", "sequence of UniProt Q96RR4 (whole entry, looked up)": "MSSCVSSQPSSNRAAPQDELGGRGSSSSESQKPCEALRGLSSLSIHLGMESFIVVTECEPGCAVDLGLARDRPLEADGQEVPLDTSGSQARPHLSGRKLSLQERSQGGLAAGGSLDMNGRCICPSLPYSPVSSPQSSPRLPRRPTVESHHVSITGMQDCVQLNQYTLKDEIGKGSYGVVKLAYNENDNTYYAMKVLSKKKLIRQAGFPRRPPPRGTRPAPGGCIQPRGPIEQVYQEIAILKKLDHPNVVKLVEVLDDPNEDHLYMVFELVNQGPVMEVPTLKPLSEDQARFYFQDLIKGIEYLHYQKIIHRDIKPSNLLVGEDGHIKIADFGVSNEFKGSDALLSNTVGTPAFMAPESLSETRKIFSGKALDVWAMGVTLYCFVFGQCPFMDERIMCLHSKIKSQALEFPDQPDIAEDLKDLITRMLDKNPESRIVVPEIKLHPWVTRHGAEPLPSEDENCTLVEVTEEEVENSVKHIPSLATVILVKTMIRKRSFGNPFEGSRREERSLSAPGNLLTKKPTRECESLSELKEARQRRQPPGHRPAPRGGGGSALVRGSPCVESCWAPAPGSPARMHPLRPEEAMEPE", "sequence of UniProt P11802 (whole entry, looked up)": "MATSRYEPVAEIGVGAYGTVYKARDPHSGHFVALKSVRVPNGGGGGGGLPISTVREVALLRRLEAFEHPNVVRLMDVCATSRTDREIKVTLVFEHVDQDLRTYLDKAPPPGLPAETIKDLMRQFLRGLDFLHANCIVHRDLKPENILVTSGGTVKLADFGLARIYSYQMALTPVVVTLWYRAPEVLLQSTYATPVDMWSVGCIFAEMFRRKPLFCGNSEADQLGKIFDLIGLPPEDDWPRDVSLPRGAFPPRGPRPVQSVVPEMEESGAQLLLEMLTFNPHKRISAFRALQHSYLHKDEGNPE"}
{"data": "Sample 1", "target": "tungstate, free oxyanion", "technique": "microfluidic competitive inhibition", "sample": "in vitro, cell-free expressed", "concentration": "not given", "notes": "derived from inhibition constants, unchanged parent 2230 nM", "direction": "lower = stronger binding", "starting sequence": "PafA, mature enzyme, eGFP fusion (Elizabethkingia meningoseptica, UniProt Q9KJX5); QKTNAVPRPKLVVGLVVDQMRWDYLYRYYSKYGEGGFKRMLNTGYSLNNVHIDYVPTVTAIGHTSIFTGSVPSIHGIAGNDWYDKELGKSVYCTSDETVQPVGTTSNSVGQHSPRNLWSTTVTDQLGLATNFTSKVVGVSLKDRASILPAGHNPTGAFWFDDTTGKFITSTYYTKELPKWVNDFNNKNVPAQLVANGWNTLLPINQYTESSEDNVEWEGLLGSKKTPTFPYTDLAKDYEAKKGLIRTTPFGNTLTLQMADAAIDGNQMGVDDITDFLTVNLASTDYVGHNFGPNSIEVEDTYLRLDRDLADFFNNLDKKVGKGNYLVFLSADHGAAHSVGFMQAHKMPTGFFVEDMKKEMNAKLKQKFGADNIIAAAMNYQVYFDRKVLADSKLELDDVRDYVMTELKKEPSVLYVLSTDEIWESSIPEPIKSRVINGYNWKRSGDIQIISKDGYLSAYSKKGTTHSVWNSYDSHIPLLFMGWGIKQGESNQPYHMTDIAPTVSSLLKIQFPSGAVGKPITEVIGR"}
{"Change": "I431V", "oxyanion analog dissociation constant": "2.33 µM"}
{"Change": "P493V", "oxyanion analog dissociation constant": "2.26 µM"}
{"Change": "V416G", "oxyanion analog dissociation constant": "1.67 µM"}
{"Change": "T278G", "oxyanion analog dissociation constant": "2.22 µM"}
{"Change": "Y459V", "oxyanion analog dissociation constant": "2.41 µM"}
{"Change": "A60G", "oxyanion analog dissociation constant": "2.93 µM"}
{"Change": "D385V", "oxyanion analog dissociation constant": "1.69 µM"}
{"Change": "A515G", "oxyanion analog dissociation constant": "2.12 µM"}
{"data": "Sample 2", "target": "UDP-N-acetylglucosamine--peptide N-acetylglucosaminyltransferase 110 kDa subunit (OGT, Homo sapiens, UniProt O15294)", "read-out": "binding", "technique": "phage display NGS", "form": "peptide", "concentration": "concentration not given", "relative to": "input library", "sequence of UniProt O15294 (whole entry, looked up)": "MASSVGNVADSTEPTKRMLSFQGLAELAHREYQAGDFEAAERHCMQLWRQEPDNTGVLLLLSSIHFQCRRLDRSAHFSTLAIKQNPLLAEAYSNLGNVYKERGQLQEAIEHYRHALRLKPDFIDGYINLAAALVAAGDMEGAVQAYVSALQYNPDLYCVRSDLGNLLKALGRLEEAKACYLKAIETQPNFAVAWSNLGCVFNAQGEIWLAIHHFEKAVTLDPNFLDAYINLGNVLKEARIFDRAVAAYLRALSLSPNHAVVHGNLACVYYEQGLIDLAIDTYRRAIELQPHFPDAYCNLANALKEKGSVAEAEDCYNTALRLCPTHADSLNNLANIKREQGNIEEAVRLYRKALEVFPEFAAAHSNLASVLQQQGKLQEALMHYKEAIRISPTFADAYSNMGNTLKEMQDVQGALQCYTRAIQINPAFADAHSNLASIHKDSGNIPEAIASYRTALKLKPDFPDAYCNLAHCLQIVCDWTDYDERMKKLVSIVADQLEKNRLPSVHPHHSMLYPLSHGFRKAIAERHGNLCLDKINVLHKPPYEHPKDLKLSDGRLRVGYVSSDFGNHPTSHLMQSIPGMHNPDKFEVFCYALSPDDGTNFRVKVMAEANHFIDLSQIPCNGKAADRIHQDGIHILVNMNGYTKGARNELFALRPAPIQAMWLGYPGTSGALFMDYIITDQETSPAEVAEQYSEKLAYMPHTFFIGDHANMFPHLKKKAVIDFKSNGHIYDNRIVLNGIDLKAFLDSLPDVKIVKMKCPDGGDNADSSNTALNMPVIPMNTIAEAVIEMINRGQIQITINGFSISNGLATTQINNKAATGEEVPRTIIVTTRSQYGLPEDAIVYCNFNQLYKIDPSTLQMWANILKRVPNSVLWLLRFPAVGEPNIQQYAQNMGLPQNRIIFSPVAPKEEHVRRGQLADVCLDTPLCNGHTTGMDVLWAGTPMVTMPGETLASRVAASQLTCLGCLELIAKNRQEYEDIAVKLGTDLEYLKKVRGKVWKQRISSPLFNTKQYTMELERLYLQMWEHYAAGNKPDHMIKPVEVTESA"}
{"Sequence": "YDHQRVAMLHNIHRV", "enrichment fold change": 3.2}
{"Sequence": "QEHQYYRPKYLIEIY", "enrichment fold change": 2.47}
{"Sequence": "RFMPVYQMNVPEIDV", "enrichment fold change": 2.2}
{"Sequence": "LPIPKFLPIYQLKLE", "enrichment fold change": 1.64}
{"Sequence": "KFTELPMYHDARHHQ", "enrichment fold change": 3.62}
{"Sequence": "GAYSPIYQIFYSRIT", "enrichment fold change": 58.6}
{"Sequence": "HRDVNNHSLHQSPTH", "enrichment fold change": 4.93}
{"Sequence": "HFTREPPTHHHKLQE", "enrichment fold change": 8.76}
{"data": "Sample 3", "target": "Delta-type opioid receptor (OPRD1, Homo sapiens, UniProt P41143)", "read-out": "ligand displacement", "concentration": "10 µM", "sequence of UniProt P41143 (whole entry, looked up)": "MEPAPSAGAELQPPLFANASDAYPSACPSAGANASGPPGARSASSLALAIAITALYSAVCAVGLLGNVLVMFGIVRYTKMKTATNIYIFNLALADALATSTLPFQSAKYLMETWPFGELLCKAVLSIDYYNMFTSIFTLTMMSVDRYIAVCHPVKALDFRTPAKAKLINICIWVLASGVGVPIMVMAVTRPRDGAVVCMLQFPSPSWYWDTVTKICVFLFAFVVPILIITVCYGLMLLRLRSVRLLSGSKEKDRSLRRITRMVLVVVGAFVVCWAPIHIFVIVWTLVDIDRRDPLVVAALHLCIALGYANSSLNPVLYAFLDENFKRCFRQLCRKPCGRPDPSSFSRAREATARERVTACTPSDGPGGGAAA"}
{"Structure (SMILES)": "Cn1nc(C(=O)NCc2ccc(C(=O)O)cc2)cc1-c1ccc2[nH]ccc2c1", "inhibition [%]": 0.8}
{"Structure (SMILES)": "CN1CCN(C(=O)C(C)(C)c2ccc(C(=O)Nc3cn4cc(-c5cc(C(C)(C)C)cc(C(C)(C)C)c5)ccc4n3)cc2)CC1", "inhibition [%]": 46.2}
{"Structure (SMILES)": "N#CC1(c2ccccn2)CCN(Cc2cc(C(=O)N3CCCC3)c(=O)n3ccccc23)CC1", "inhibition [%]": -0.84}
{"Structure (SMILES)": "C[C@@H](c1cccc(C#N)c1)n1cc(Cl)cc(C(N)=O)c1=N", "inhibition [%]": -3.33}
{"Structure (SMILES)": "NC(=O)c1ccc2nc(-c3ccc(C4(N)CCC4)cc3)c(-c3ccccc3)n2n1", "inhibition [%]": 26.9}
{"Structure (SMILES)": "COc1cc(C(=O)O)ncc1C#Cc1ccccc1NS(=O)(=O)c1cccc2c(N(C)C)ccnc12", "inhibition [%]": 84.3}
{"Structure (SMILES)": "Cc1noc([C@H]2C[C@@H](c3ccc(C(F)(F)F)cc3)CN(C(=O)N3CCS(=O)(=O)C3)C2)n1", "inhibition [%]": -0.62}
{"Structure (SMILES)": "O=C1NC(c2ccccn2)Sc2ccccc21 (centres unmarked)", "inhibition [%]": -0.624}
{"Structure (SMILES)": "C[C@@H]1CN(c2cc(-c3n[nH]c4ccc(OC5(C)CC5)cc34)ncn2)C[C@H](C)O1", "inhibition [%]": 6.66}
{"Structure (SMILES)": "COc1ccc2cc(OCC3(C(=O)O)CN(C(=O)c4ccc(F)cc4)C3)ccc2c1", "inhibition [%]": 5.07}
{"Structure (SMILES)": "C[C@H](c1ccnc(Nc2nc3ccc(-c4cc(N(C)C)ncn4)cc3[nH]2)c1)N1CCN(C(=O)CC(F)(F)F)CC1", "inhibition [%]": 29}
{"Structure (SMILES)": "CN(C)c1ncnc(-c2ccc3nc(Nc4cc(CN5CCN(C(=O)CC(F)(F)F)CC5)ccn4)[nH]c3c2)c1Cl", "inhibition [%]": 2.06}
{"Structure (SMILES)": "Nc1nc(NCc2ccccc2)nc(-c2cccc(CO)c2)n1", "inhibition [%]": 9.2}
{"Structure (SMILES)": "CO[C@H]1CC[C@H](CNc2ccc(S(=O)(=O)NC(=O)c3ccc(N4CCN(CC5=C(c6ccc(Cl)cc6)CC(C)(C)CC5)CC4)cc3Oc3cnc4[nH]ccc4c3)cc2[N+](=O)[O-])CC1", "inhibition [%]": 5.68}
{"Structure (SMILES)": "CS(=O)(=O)N1CCCC(NC(=O)[C@H](CCC2CCCCC2)NC(=O)c2ccc(CNC(=O)c3cnc4ccccn34)cc2)C1 (some centres unmarked)", "inhibition [%]": 8.18}
{"Structure (SMILES)": "O=c1nc(-c2ccccn2)sc2ccccc12", "inhibition [%]": 4.81}
{"data": "Sample 4", "SMILES": "N/C(=N\\[N+](=O)[O-])N/N=C\\c1ccc(-c2cccc([N+](=O)[O-])c2)o1", "read-out": "enzyme activity", "mode": "inhibitor", "concentration": "0.5 µM", "relative to": "control"}
{"target": "STK39 (Homo sapiens, UniProt Q9UEW8)", "remaining activity": "91.8%"}
{"target": "Cyclin-dependent kinase 4, with cyclin D1 (CDK4, Homo sapiens, UniProt P11802)", "remaining activity": "96.6%"}
{"target": "DAPK1 (Homo sapiens, UniProt P53355)", "remaining activity": "97.8%"}
{"target": "CAMKK2 (Homo sapiens, UniProt Q96RR4)", "remaining activity": "114%"}
{"data": "Other studies, line by line"}
{"SMILES": "Cc1nc(Nc2ncc(C(=O)Nc3c(C)cccc3Cl)s2)cc(N2CCN(CCO)CC2)n1", "tested on": "STK33 (Homo sapiens, UniProt Q9BYT3)", "setting": "10 µM", "quantity": "inhibition", "result": "< 50%"}
{"SMILES": "O=c1c2c(Cl)cccc2nc([C@@H]2CCCN2)n1-c1cccnc1", "system": "mouse, microsomes or S9", "setting": "2 µM, 0.5 h", "quantity": "remaining compound", "result": "> 99.9%"}
{"note": "Repeated from above (sample 3):"}
{"Structure (SMILES)": "Cn1nc(C(=O)NCc2ccc(C(=O)O)cc2)cc1-c1ccc2[nH]ccc2c1", "inhibition [%]": 0.8}
{"Structure (SMILES)": "CN1CCN(C(=O)C(C)(C)c2ccc(C(=O)Nc3cn4cc(-c5cc(C(C)(C)C)cc(C(C)(C)C)c5)ccc4n3)cc2)CC1", "inhibition [%]": 46.2}
{"Structure (SMILES)": "N#CC1(c2ccccn2)CCN(Cc2cc(C(=O)N3CCCC3)c(=O)n3ccccc23)CC1", "inhibition [%]": -0.84}
{"Structure (SMILES)": "C[C@@H](c1cccc(C#N)c1)n1cc(Cl)cc(C(N)=O)c1=N", "inhibition [%]": -3.33}
{"Structure (SMILES)": "NC(=O)c1ccc2nc(-c3ccc(C4(N)CCC4)cc3)c(-c3ccccc3)n2n1", "inhibition [%]": 26.9}
